Measured values from different studies.
Each numbered part is a random draw from the data of one study; scales do not carry over between parts.
Sequence of UniProt Q14289 (whole entry, looked up): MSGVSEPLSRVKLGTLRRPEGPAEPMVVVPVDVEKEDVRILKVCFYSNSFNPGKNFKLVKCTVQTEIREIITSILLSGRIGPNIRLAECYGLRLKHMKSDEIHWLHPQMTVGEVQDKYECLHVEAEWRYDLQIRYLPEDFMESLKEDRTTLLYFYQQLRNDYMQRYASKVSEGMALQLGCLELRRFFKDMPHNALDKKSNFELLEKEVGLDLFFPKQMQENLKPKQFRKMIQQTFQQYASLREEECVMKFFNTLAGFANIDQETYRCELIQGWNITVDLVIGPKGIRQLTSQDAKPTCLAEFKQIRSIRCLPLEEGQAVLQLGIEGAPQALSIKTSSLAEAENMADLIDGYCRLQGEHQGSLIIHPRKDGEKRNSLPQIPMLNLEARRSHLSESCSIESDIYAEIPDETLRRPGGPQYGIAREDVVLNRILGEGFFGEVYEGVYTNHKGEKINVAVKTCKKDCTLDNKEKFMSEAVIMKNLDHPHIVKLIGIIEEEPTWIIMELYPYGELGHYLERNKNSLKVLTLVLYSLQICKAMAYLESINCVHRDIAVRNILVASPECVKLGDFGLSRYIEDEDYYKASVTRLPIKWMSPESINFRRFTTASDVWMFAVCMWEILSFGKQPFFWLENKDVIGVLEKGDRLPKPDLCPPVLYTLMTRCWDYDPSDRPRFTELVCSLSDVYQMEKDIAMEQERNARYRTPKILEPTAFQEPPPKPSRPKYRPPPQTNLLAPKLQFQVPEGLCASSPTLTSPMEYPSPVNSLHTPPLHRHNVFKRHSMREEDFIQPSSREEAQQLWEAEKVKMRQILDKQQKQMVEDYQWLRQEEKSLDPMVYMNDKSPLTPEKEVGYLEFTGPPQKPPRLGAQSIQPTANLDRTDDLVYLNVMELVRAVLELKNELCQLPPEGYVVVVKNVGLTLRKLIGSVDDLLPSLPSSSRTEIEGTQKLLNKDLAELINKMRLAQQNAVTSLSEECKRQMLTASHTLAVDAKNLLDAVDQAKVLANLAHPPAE
Sequence of UniProt Q13882 (whole entry, looked up): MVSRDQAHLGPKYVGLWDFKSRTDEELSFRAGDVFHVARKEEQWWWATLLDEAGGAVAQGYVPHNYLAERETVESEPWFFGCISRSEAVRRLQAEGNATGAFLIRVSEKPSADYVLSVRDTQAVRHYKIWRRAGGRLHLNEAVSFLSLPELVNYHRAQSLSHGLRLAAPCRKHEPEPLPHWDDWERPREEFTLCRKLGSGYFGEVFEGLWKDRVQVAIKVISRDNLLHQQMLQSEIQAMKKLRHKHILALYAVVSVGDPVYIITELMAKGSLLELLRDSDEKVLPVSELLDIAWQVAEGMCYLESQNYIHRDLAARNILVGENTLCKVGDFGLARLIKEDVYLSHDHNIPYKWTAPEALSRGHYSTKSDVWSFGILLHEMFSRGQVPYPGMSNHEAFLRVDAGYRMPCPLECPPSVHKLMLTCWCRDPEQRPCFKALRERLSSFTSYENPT
Sequence of UniProt Q13523 (whole entry, looked up): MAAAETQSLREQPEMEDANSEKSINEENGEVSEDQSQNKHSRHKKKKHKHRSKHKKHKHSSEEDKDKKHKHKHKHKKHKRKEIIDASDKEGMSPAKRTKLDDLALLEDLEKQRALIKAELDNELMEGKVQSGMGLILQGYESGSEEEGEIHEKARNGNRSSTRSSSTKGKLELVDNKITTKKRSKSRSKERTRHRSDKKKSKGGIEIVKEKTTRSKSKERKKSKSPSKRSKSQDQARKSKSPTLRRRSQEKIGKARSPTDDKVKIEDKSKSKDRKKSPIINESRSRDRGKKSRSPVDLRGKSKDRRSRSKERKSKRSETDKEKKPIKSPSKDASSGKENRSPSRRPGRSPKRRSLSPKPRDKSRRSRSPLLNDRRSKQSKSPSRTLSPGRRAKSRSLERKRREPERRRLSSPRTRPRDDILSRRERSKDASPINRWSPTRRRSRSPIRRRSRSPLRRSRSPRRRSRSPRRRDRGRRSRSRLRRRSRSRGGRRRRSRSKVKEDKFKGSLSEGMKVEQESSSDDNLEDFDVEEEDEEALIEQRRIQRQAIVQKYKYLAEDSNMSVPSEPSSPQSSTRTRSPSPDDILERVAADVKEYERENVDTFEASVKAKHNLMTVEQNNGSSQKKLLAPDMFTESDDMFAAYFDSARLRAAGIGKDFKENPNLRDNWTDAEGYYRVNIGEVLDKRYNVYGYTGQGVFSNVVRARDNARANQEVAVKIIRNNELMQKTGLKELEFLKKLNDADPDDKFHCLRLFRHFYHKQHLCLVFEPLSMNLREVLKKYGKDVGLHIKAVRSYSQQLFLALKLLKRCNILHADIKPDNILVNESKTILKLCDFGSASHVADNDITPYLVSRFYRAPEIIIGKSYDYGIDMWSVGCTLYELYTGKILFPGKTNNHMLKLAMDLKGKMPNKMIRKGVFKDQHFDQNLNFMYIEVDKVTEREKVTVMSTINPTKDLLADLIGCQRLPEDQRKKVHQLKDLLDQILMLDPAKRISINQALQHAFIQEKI
Sequence of UniProt P27361 (whole entry, looked up): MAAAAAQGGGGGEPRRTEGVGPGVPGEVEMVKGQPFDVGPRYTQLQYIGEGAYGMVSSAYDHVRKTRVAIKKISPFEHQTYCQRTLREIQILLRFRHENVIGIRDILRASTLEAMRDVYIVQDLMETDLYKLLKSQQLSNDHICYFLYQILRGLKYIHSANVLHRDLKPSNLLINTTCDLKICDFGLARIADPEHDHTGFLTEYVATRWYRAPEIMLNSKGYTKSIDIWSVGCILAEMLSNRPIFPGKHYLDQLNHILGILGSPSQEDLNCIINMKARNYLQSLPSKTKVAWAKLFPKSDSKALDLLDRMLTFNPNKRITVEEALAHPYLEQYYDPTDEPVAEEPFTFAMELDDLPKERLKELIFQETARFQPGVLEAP
Sequence of UniProt Q9Y6E0 (whole entry, looked up): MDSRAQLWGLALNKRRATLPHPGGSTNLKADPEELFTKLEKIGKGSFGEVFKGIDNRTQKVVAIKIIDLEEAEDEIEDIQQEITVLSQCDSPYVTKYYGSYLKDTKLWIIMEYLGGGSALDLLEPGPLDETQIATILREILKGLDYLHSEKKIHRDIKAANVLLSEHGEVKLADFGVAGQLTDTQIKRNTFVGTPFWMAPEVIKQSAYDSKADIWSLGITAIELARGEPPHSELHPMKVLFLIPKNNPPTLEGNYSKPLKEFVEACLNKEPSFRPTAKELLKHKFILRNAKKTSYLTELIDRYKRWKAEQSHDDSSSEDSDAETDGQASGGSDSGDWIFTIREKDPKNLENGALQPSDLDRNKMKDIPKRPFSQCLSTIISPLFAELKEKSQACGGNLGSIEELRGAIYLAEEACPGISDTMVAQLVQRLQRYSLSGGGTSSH
Sequence of UniProt P07332 (whole entry, looked up): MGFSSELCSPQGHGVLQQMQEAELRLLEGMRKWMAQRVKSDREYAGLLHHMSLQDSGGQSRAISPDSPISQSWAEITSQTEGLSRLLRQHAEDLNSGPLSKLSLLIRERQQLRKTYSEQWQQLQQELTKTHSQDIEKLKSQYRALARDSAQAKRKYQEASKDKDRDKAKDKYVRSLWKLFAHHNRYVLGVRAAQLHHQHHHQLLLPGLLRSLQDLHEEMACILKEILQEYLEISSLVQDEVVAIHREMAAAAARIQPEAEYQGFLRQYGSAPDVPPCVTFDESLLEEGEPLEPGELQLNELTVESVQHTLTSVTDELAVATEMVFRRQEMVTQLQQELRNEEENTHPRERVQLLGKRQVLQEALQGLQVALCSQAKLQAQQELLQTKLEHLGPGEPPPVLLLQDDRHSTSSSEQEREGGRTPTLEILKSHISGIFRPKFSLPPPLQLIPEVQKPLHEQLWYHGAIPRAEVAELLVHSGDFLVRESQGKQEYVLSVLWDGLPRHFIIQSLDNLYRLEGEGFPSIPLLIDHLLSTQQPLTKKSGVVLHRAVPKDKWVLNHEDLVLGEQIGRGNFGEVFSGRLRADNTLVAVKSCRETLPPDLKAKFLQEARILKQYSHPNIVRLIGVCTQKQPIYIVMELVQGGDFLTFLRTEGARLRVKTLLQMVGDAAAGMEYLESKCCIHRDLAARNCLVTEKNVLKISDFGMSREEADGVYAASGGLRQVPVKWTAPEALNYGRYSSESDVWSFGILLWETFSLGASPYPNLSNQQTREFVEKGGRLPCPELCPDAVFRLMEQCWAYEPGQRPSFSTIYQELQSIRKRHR

Series 1
Target: Serine/threonine-protein kinase SIK2 (SIK2, Homo sapiens, UniProt Q9H0K1)
Sequence of UniProt Q9H0K1 (whole entry, looked up): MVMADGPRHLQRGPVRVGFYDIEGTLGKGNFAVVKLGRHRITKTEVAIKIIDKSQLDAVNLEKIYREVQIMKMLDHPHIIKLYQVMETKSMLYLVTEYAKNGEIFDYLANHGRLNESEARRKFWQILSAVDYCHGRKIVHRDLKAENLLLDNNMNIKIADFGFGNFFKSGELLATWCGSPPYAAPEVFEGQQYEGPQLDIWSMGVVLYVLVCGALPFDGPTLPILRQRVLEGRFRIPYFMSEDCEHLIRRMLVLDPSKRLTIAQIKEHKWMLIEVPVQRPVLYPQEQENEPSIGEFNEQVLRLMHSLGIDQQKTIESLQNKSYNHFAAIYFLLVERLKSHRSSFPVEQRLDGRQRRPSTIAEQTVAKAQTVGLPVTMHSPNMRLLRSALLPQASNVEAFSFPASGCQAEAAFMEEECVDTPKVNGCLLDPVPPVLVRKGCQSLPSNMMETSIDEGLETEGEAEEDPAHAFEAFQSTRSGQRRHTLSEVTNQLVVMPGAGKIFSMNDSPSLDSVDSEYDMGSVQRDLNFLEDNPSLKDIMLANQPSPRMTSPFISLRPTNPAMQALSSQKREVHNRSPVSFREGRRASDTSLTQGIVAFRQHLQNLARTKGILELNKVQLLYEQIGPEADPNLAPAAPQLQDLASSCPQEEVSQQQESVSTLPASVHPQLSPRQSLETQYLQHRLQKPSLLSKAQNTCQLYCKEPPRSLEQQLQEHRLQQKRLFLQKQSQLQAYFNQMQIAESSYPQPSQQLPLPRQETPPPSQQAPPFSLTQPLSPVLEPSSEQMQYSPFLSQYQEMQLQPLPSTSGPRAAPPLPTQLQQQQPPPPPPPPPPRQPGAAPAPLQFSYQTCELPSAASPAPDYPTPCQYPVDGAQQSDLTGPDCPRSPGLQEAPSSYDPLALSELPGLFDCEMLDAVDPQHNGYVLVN
Read-out: enzyme activity
Action: inhibitor
Concentration: 0.5 µM
Baseline: control
Endpoint: remaining activity
O=C1C(Cl)=C(N2C(=O)CCC2=O)C(=O)c2ccccc21: 92.8%
c1ccc(-c2[nH]ncc2-c2ccnc3ccccc23)nc1: 94.8%
COc1cc2c(cc1OC)-c1[nH]nc(Nc3cccc(F)c3)c1C2: 38.6%
CCN(CC)C(=O)c1ccc(Nc2nc(OCC3CCCCC3)c3[nH]cnc3n2)cc1: 75.3%
Cc1nc2cc3nc(-c4cccs4)cnc3cc2n1C: 112%
O=C(Nc1cccc(Nc2nccc(Nc3cccc(C(F)(F)F)c3)n2)c1)C1CC1: 103%
CCOc1nc(NC(=O)Cc2cc(OC)ccc2OC)cc(N)c1C#N: 97.9%
CN(C)C[C@H]1CCn2c(c(C3=C(c4cn(C)c5ccccc45)C(=O)NC3=O)c3ccccc32)C1: 88.8%
Nc1cccc(-c2cc3c(Oc4cccc(O)c4)ncnc3[nH]2)c1: 69.4%
O=c1cc(-c2cccc3c2Sc2ccccc2S3)oc(N2CCOCC2)c1: 113%
CCN(CC)CCNC(=O)c1c(C)[nH]c(/C=C2\C(=O)Nc3ccc(Cl)cc32)c1C: 42.7%
Cc1cc2ncc(-c3ccccc3)nc2cc1C: 87.4%

Series 2
SMILES: O=S(=O)(NC1CCC(c2cc(F)ccc2F)(S(=O)(=O)c2ccc(Cl)cc2)CC1)C(F)(F)F (stereo not shown)
Read-out: cell-free assay
Technique: competition with immobilised ligand
Concentration: 1 µM
Endpoint: remaining binding
Insulin-like growth factor 1 receptor (IGF1R, Homo sapiens, UniProt P08069): 100%
Macrophage colony-stimulating factor 1 receptor (CSF1R, Homo sapiens, UniProt P07333): 100%
Vascular endothelial growth factor receptor 3 (FLT4, Homo sapiens, UniProt P35916): 100%
Casein kinase I isoform gamma-1 (CSNK1G1, Homo sapiens, UniProt Q9HCP0): 86%
Serine/threonine-protein kinase PRP4 homolog (PRPF4B, Homo sapiens, UniProt Q13523): 100%
Mitogen-activated protein kinase 3 (MAPK3, Homo sapiens, UniProt P27361): 100%
Protein-tyrosine kinase 6 (PTK6, Homo sapiens, UniProt Q13882): 95%
Phosphatidylinositol 4-kinase beta (PI4KB, Homo sapiens, UniProt Q9UBF8): 82%
Tyrosine-protein kinase Fes/Fps (FES, Homo sapiens, UniProt P07332): 88%
Serine/threonine-protein kinase 24 (STK24, Homo sapiens, UniProt Q9Y6E0): 99%
Serine/threonine-protein kinase MRCK alpha (CDC42BPA, Homo sapiens, UniProt Q5VT25): 91%
ALK tyrosine kinase receptor (ALK, Homo sapiens, UniProt Q9UM73): 100%
Cyclin-dependent kinase 5 (CDK5, Homo sapiens, UniProt Q00535): 100%
Ribosomal protein S6 kinase alpha-5, C-terminal kinase domain (RPS6KA5, Homo sapiens, UniProt O75582): 71%
Angiopoietin-1 receptor (TEK, Homo sapiens, UniProt Q02763): 85%
Protein-tyrosine kinase 2-beta (PTK2B, Homo sapiens, UniProt Q14289): 100%

Series 3
Target: Fragile X messenger ribonucleoprotein 1, C-terminal low-complexity region (Fmr1, Mus musculus, UniProt P35922)
Technique: RNA Bind-n-Seq
Molecule type: RNA
Medium: in vitro
Concentration: 200 nM
Setting: whole 134-nt RNA, ends assumed
With: 150 mM KCl
Baseline: input library
Reading: higher = stronger binding
Endpoint: log2 enrichment
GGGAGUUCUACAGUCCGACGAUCUUCACUCUUUGAAGGAACGUGGUACUUAGUUAGGGUGGAUGAAAAGCACAGAAGAACUUACGCUCGGCGUCCCACUCCAAAUGAUGACACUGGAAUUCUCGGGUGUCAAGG: 0.47
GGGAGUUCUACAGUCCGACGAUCUGUGCUACACAUCGUAUGUACCGAAUCGGGCCCCCCCGGGGCCCCCCCGGGGCCCCCCCGGGGAAAGUAUUAUGUUACGCCGUUCGGAUCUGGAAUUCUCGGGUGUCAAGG: -2.21
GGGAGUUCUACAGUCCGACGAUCACCAUGCAGGUGGGCAUCUUUGGGAAGUGGGGCAAGGGGGGGAUAGGGAGGGGGGUAACACUUUGGGAACAAAAGGUCCCAGGUCGUUUCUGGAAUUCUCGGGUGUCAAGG: 0.835
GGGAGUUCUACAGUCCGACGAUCUCAAGUCCUGUGCUACACAUCGUAUGUACCGAAUCGGAGGUUUUUGGAAAAAGGAAAGUAUUAUGUUACGCCGUUCGGAUCUGCACUUCCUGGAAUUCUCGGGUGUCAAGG: -0.953
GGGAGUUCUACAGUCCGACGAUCCACAGACAACACGCACCCACACAGACACAGAGGGAAGGGGUUGGGAUGGGGACAGGGUGCACAACAGGGCGGGGUAGGACCCCAGCCCCUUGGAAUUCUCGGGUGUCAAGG: 1.27
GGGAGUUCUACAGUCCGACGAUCAGUCCUGUGCUACACAUCGUAUGUACCGAAUCGGUUUUUGGAAAAAGGUUUUUUUGGAAAGUAUUAUGUUACGCCGUUCGGAUCUGCACUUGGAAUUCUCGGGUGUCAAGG: -1.34
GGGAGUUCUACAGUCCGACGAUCCCUCAAGUCCUGUGCUACACAUCGUAUGUACCGAAUCGGGGUGGUGGGGUGGAAAGUAUUAUGUUACGCCGUUCGGAUCUGCACUUCCAGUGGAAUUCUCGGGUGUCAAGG: 0.617
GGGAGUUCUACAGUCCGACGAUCAGUCCUGUGCUACACAUCGUAUGUACCGAAUCGGGCCCCGGGGCCCCGGCCCCGGGGAAAGUAUUAUGUUACGCCGUUCGGAUCUGCACUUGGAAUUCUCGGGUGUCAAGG: -1.15

Mixed results
CCC[C@@H]1NC(=O)CSC[C@@H](C(=O)OCC)N(C)C(=O)[C@H](CC(C)C)NC(=O)[C@H](C)N(C)C(=O)[C@@H](CC(C)C)NC(=O)[C@H](C)N(C)C(=O)[C@H]2CCCN2C(=O)[C@@H](CC(C)C)NC(=O)CN(C)C1=O  logD (hydrocarbon/water): 1.07

Some of these lines once more (series 2):
Casein kinase I isoform gamma-1 (CSNK1G1, Homo sapiens, UniProt Q9HCP0): 86%
Protein-tyrosine kinase 2-beta (PTK2B, Homo sapiens, UniProt Q14289): 100%
Ribosomal protein S6 kinase alpha-5, C-terminal kinase domain (RPS6KA5, Homo sapiens, UniProt O75582): 71%
